Assay results collected from several papers.
Several values in a cell are separate wells, animals, samples, runs or records. Numbers after ± are the reported error.
IDE: Insulin-degrading enzyme (IDE, Homo sapiens, UniProt P14735)
UniProt P08684, sequence (whole entry, looked up): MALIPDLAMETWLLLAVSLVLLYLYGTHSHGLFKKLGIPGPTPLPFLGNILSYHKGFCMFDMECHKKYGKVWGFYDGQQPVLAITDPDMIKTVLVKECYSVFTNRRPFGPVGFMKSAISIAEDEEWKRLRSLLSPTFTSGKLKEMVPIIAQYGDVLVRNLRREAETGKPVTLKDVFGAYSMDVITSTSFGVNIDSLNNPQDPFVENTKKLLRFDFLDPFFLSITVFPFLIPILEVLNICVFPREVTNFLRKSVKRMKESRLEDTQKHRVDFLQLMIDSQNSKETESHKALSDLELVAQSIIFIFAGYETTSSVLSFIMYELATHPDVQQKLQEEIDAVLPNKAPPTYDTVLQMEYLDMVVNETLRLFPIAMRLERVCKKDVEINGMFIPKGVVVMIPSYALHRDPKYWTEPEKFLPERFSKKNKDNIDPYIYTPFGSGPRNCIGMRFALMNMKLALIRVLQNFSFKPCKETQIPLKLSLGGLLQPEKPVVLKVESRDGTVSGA

Compound | tested on | assay | test system | conditions | scale | quantity | result
CC(C)n1ncc2c(C(=O)NCC3(C)CNC3)cc(C3CC3)nc21 | Vero C1008 | neutral red uptake | DMEM with 2% FBS | 3.1 µM | reference: positive control | viability | 100%
COc1cc2c(NC3CCN(CCCC(=O)NCCCCCCCCCCCC(=O)N[C@H](C(=O)N4C[C@H](O)C[C@H]4C(=O)NCc4ccc(-c5scnc5C)cc4)C(C)(C)C)CC3)nc(N3CCC(F)(F)CC3)nc2cc1OCCCN1CCCC1 | PNT2 | CCK-8 | – | concentration not given, 5 days | – | viability | not toxic
O=c1[nH]cc(F)c(=O)[nH]1 | Huh-7 | CCK-8 | – | 50 µM, 72 (unit not given) | reference: untreated control | viability | 44.7 ± 0.74%
O[C@H]1[C@H](OCc2cn(Cc3ccc(F)cc3)nn2)O[C@H]2[C@@H]1OC[C@H]2O | Huh-7 | cytotoxicity, CellTiter-Glo | – | up to 30 µM, 72 h | – | viability | not toxic
O=C(C[C@@H](C(F)F)n1ccc(F)n1)N1CCC(O)(Cn2cnc3c(cnn3-c3ccc(F)cc3)c2=O)CC1 | LNCaP | CCK-8 | – | 123.5 nM, 5 days | – | viability | 15.8% and 19.6%
O=C(NC[C@H](O)CO)c1ccncc1Nc1ccc(I)cc1F | A-172 | WST-8 | – | 1 µM, 25 h | – | viability | 102%
O=[N+]([O-])c1ccccc1-c1ccc(CN2CCCC2c2ccc(N3CCCC3)cc2)o1 (centres unmarked) | HEK-Blue IL-33 | MTS | – | up to 333 µM, 20 h | – | viability | no effect
Cn1c(=O)c(F)c(Nc2ccc(I)cc2F)c2c(=O)n(C[C@@H](O)CO)cnc21 | A-172 | WST-8 | – | 1 µM, 25 h | – | viability | 93.2%
C=CC(=O)N1CCCN(C(=O)c2cc(Sc3cnc(NC(=O)C4CC4)s3)c(C)cc2OC)C[C@H]1C | human primary T cells | – | – | 10 µM, six days, with: TCR stimulation | – | viability | no effect
CC(=O)Nc1cccc(-n2c(=O)n(C3CC3)c(=O)c3c(Nc4ccc(I)cc4F)n(C)c(=O)c(C)c32)c1 | COLO 205 | resazurin | – | concentration not given, 72 h, unit not given | reference: DMSO | viability | 0.975 and 0.493 and 0.18 and 0.277 and 0.222 and 0.218
Cc1ccccc1-c1ccc([C@@H]2[C@H]3CN(S(=O)(=O)c4cn(C)cn4)CCCCN3[C@H]2CO)cc1 | IDE | enzyme activity, inhibitor, fluorogenic kinetic | – | with: Mca-RPPGFSAFK(Dnp)-OH substrate | – | EC50 | 1.7 µM
COc1ccc(-c2ccc(CN3CCCC3c3ccc(N(C)C)cc3)o2)c([N+](=O)[O-])c1 (centres unmarked) | HEK-Blue IL-33 | MTS | – | up to 333 µM, 20 h | – | viability | no effect
CCC(=O)N1[C@H](CO)[C@H](c2ccc(-c3ccccc3OC)cc2)[C@H]1CNC(C)=O | IDE | enzyme activity, inhibitor, fluorogenic kinetic | – | with: Mca-RPPGFSAFK(Dnp)-OH substrate | – | EC50 | 10.7 µM
CC[C@H]1[C@@H](O)[C@@H]2[C@H](CC[C@]3(C)[C@@H]([C@H](C)CCNC(=O)NS(=O)(=O)c4ccc(C(C)(C)C)cc4)CC[C@@H]23)[C@@]2(C)CC[C@@H](O)C[C@@H]12 | Cytochrome P450 3A4 (CYP3A4, Homo sapiens, UniProt P08684) | – | human, plasma | 10 mg, day 1, compound alone | direction not given | lambda z mean | 0.0605 h⁻¹
